Measurements from different studies.
Compare with care: the assays were run in different laboratories. Numbers after ± are the reported error. Ends that are not written are not given here.
B1: UGT1A9 (Homo sapiens, UniProt O60656); chain GKLLVVPMDGSHWFTMRSVVEKLILRGHEVVVVMPEVSWQLGRSLNCTVKTYSTSYTLEDLDREFKAFAHAQWKAQVRSIYSLLMGSYNDIFDLFFSNCRSLFKDKKLVEYLKESSFDAVFLDPFDNCGLIVAKYFSLPSVVFARGILCHYLEEGAQCPAPLSYVPRILLGFSDAMTFKERVRNHIMHLEEHLLCHRFFKNALEIASEILQTPVTEYDLYSHTSIWLLRTDFVLDYPKPVMPNMIFIGGINCHQGKPLPMEFEAYINASGEHGIVVFSLGSMVSEIPEKKAMAIADALGKIPQTVLWRYTGTRPSNLANNTILVKWLPQNDLLGHPMTRAFITHAGSHGVYESICNGVPMVMMPLFGDQMDNAKRMETKGAGVTLNVLEMTSEDLENALKAVINDKSYKENIMRLSSLHKDRPVEPLDLAVFWVEFVMRHKGAPHLRPAAHDLTWYQYHSLDVIGFLLAVVLTVAFITFKCCAYGYRKCLGKKGRVKKAHKSKTH

Molecule | tested on | test | test system | setting | scale | measurement | value
B1 (UGT1A9) | COc1ccc(O)cc1 | steady-state kinetics |  | pH 7.4, 37 °C |  | Vmax | 0.00231 µmol/min/mg
insulin degludec |  | ELISA | human severe renal impairment, serum | dose not given, single dose | baseline: impaired over normal renal function | Cmax ratio | 1.23
glial fibrillary acidic protein |  |  | human EDTA whole blood | 24 h, 2 to 8 °C, delayed centrifugation |  | stability | stable
insulin lispro |  | sedimentation velocity AUC | insulin diluent | 500 µg/mL, pH 7.4 |  | hexamer fraction | ~84%
COc1cccc2c1C(=O)c1c(O)c3c(c(O)c1C2=O)C[C@@](O)(C(=O)CO)C[C@@H]3O[C@H]1C[C@H](NC(=O)[C@@H]2CCCN2C(=O)CN)[C@H](O)[C@H](C)O1 |  |  | mouse, E0771 tumour-bearing, heart | intravenous, 92 µmol/kg PhAc-ALGP-Dox |  | Cmax | 1650 nM
KCNTATCATQRLANFLVHSSNNFGPILPPTNVGSNTY (Pramlintide; not fully specified (C-terminus, bridges); cysteine pairing not given here; sequence looked up) |  | measured: Nausea | peptide, obese or overweight humans | concentration not given, ITT population |  | adverse event incidence | 14.3%
CC(C)[C@H](NC(=O)[C@@H]1CCCN1C(=O)[C@H](CCCNC(=N)N)NC(=O)[C@H](CS)NC(=O)[C@H](Cc1c[nH]c2ccccc12)NC(=O)[C@H](CCCNC(=N)N)NC(=O)[C@@H](Cc1ccccc1)NC(=O)[C@H](Cc1c[nH]cn1)NC(=O)[C@H](CCC(=O)O)NC(=O)[C@H](CS)NC(=O)[C@H](CS)NC(=O)[C@H](CCCCN)NC(=O)[C@@H]1CC(=O)N[C@@H](CCCNC(=N)N)C(=O)N[C@@H](C)C(=O)N[C@@H](CC(=O)O)C(=O)N[C@H](Cc2ccc(O)cc2)C(=O)N1)C(N)=O [technetium-99m labelled] |  |  | C57 mice, heart | intravenous, 0.037 MBq, 0.5 h |  | tissue uptake | 2.12 ± 0.46 %ID/g
insulin aspart |  | ELISA | Japanese type 1 diabetes patients, serum | subcutaneous, 0.2 U/kg |  | onset of appearance | 7.1 min
insulin lispro |  |  | healthy Japanese men, fasted, plasma | subcutaneous, 0.3 U/kg |  | AUC(0-inf) | 12.4 ± 1.46 ng·h/mL
insulin icodec |  |  | Japanese type 1 diabetes patients, serum | subcutaneous, once weekly |  | time to steady state | 2 to 3 weeks
